Results pooled from the literature.
Numbered parts are unrelated; each lists some results of a single study. Substitutions count along the parent as printed.

Set 1 — method: RNA Bind-n-Seq; molecule type: RNA; matrix: in vitro; tested at: 200 nM; setting: whole 134-nt RNA, ends assumed; added: 150 mM KCl; baseline: input library; reading: higher = stronger binding; measurement: log2 enrichment
Target: Fragile X messenger ribonucleoprotein 1, C-terminal low-complexity region (Fmr1, Mus musculus, UniProt P35922)
All sequences stand within: GGGAGUUCUACAGUCCGACGAUC … UGGAAUUCUCGGGUGUCAAGG
CUGUGCUACACAUCGUAUGUACCGAAUCGGGCCCCCCCGGGCCCCCCCGGCCCCCCCGGGGAAAGUAUUAUGUUACGCCGUUCGGAUCUG: -1.04
UAACUUUCGAGGAGGAUCUGAUGGAUAUGGCAGUGGACGUGGAUUUGGGGAUGGCUAUAAUGGGUAUGGAGGAGGACCUGGAGGUGGCAA: 0.364
UCAAGUCCUGUGCUACACAUCGUAUGUACCGAAUCGGGGCCGGGCCGGGCCGGGAAAGUAUUAUGUUACGCCGUUCGGAUCUGCACUUCC: 0.265
ACCAUGCAGGUGGGCAUCUUUGGGAAGUGGGGCAAGGGGGGGAUAGGGAGGGGGGUAACACUUUGGGAACAGGUGGUAAAAGGUCGUUUC: 0.433
CUGUGCUACACAUCGUAUGUACCGAAUCGGCCCCCCCGGGGCCCCCCCGGGGCCCCCCCGGAAAGUAUUAUGUUACGCCGUUCGGAUCUG: -0.805
AAGGCACGUAAGUUUAAGCUUUUUUUUUUUUUAAGUUAAUGGGAAAAAUUUGAGACGCAAUACCAAUACUUAGGAUUUUGGUCUUGGUGU: -0.186
CCUGUGCUACACAUCGUAUGUACCGAAUCGGGGAAAAAAGGGAAAAAAGGGAAAAAAGGGAAAGUAUUAUGUUACGCCGUUCGGAUCUGC: -0.484
AGUCCUGUGCUACACAUCGUAUGUACCGAAUCGGGAAAAAGGGUUUGGGAAAAAGGGAAAGUAUUAUGUUACGCCGUUCGGAUCUGCACU: -0.308
CCUGUGCUACACAUCGUAUGUACCGAAUCGGGGAGGGGUUUUUUUGGGGUUUUUUUGGGGAAAGUAUUAUGUUACGCCGUUCGGAUCUGC: 0.463
GUCCUGUGCUACACAUCGUAUGUACCGAAUCGGUUUUUUGGGUUUUUUGGUUUUUUGGAAAGUAUUAUGUUACGCCGUUCGGAUCUGCAC: -0.649
AGUCCUGUGCUACACAUCGUAUGUACCGAAUCGGGGUUUGGGGAAAGGGGAAAGGGGAAAGUAUUAUGUUACGCCGUUCGGAUCUGCACU: 0.679
CUCAAGUCCUGUGCUACACAUCGUAUGUACCGAAUCGGGGCCGGCCGGCCGGGAAAGUAUUAUGUUACGCCGUUCGGAUCUGCACUUCCA: -0.0583
ACCAUGCAGGUGGGCAUCUUUGGGAAGUGGGGCAAGGGGGGGAUAGGGAGGGGAAAAACACUUUGGGAACAGGUGGUCCCAGGUCGUUUC: 0.834
UGGGAGGUGGAUUUUGUUUAUUUUUUUAGCUCAUUUCCAGGGGUGGGAAUUUUUUUUUAAUAUGUGUCAUGAAUAAAGUUGUUUUUCAAA: 0.466

Set 2 — method: RNA Bind-n-Seq; molecule type: RNA; matrix: in vitro; tested at: 365 nM; baseline: no-protein control; reading: higher = stronger binding; measurement: RBNS enrichment (R)
Target: RNA binding protein fox-1 homolog 2, RRM domain, GST-SBP tag (RBFOX2, Homo sapiens, UniProt O43251-10, residues 100-194)
Setting: natural RNA segment, single round, ends assumed
All sequences stand within: GGGAGUUCUACAGUCCGACGAUC … UGGAAUUCUCGGGUGCCAA
Construct (chain): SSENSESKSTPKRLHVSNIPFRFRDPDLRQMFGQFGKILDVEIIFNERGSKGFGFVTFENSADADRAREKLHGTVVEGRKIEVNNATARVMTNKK
AAGGCCUGUUGAAGUCAAUGCUGUCUUGCCCCUUGCUGUUUCAGCAGGUUAGACUUUGGUCUUCACUGCUUAUAGCUGCAUUGGAGGCCAACGUAGCUGAUGCUCAGGGU: 0.906
GAGCGCCACAUGUUCCCUAUAAGGCCUGAAGCCCACAGCCCUGAAACAGUGGGGCCAGCUGCCCUGGUAUUCCAGAUACCCUGAAGCGUCUCCGUGCAGAUCUUGAAGAG: 0.196
GAAUACAUUUCUGUACACCUUAUUGUUUGGCCAGAGGGCCACCAAGUGUACUUAUAUGUAAUCCUUAAAUUUUAAACUAGCUUGUGAUUUUUAAAUAUUUCUAAACUUUU: 5.7
AGGACCAUGAGAAAUUUAAUAAAAUAGAUGGACCUUCCAGGAUUUAUUGUGGAUGGAUGUGGAUAUAUUCUGUACAGAAAACUACUCAUAUGGAAGUGGACUGAAUCCUA: 0.599
AACCCAUCUUUUGUUCUCCUAUAUCCUCCUUCUUCUGUUCCAUUUCAGUUCAGUUUCAGCGGUGCCAACCUCUUUGCGUUUCCUUUUUGUUGAUGAGGACCCAGAGCUGC: 0.819
UCUUAUUGGUUGAUAUUACCACAUGAAAUAUUGCCAGACCAAGAUACCUAAACUCAUGAUGUCUGUGGUGCUGUAAAAUUUAUACUAAAAUGUGGACUAUUUUGAAAUUA: 0.357
GCAAGGGCACAAGUCCUGGAUGUUGUGUGUAUCGAGAGGCCAAAGGCUGGUGGCAAGUGCACGGGGCACAGCGGAGUCUGUCCUGUGACGCGCAAGUCUGAGGGUCUGGG: 7.69
UCUGAGAGAGGCUAAAAUGUUUUCAGCUAGGAACAAAUCUUCCUGGUCGAAAGUUAGUAGGAUAUGCCUGCUCUUUGGCCUGAUGACCAAUUUUAACUUAGAGCUUUUUU: 0.393
AUGAAAACGCCCAAAAUAAUUAGUAGGAGUUCAUCUUUAAAGGGGAUAUUCAUUUGAUUAUACGGGGGAGGGUCAGGGAAGAACGAACCUUGACGUUGCAGUGCAGUUUC: 0.786
GCGGCCCCCACCAGGGCACACCCUACUGUCCUUGUGCCUCACGCCCCCUCCUCAUCCUGCACCCCUUCCAUCCCACCUUCCCUUUCAAUAAACAGCUGGGAUGGAUACUG: 0.566
AGUAUUGCACCGCGAAUGAUGAGUGUUUACUAUUUUACAGGAGUCAACAAGAUAAUUAAAUAUCUUGGUGUCUUGUUUCUAUUGUGUGGCUUUUUAAAAAUGACAAAUAU: 0.835
UGCUGUCAGUGUGAUGUGCUUUCUGCAUGGUUAUAUACUACUAGUGAUUUUAUCAAAACUUCUAAAAUUUAAAUUACGUGGUAAAAGAUCUGUAAAAGGCUGCAUAAAUG: 0.46

Set 3 — method: RNAcompete; molecule type: RNA; matrix: in vitro; tested at: 20 nM; setting: 7-mer, probes averaged, single round; baseline: mean of 7-mers; reading: higher = stronger binding; measurement: 7-mer Z-score
Target: PABPC1L2, full length, GST fusion (mouse, UniProt A0ABA7IW68)
CGCCUGG: -0.289
CGAAAAA: 13.1
AGGAGGA: 0.35
CUCCUUG: -0.434
AUAAACU: 1.26
GUGAUGG: -0.199
AAUUGCC: 0.225
GAAAGGU: 0.0932
CUGCAGC: -0.376
UUCGUCG: -0.51
CUAGGGA: 0.211
CAGUGCA: -0.211
UGUGUCA: -0.374
UAUGCGA: 0.0913
CGGGGGU: 0.236
GAGGACA: 0.309

Set 4 — method: protein binding microarray; molecule type: double-stranded DNA, one strand shown; matrix: in vitro; tested at: not given; baseline: not given; reading: higher = stronger binding; measurement: E-score
Target: Histone acetyltransferase KAT6A, winged helix 1, GST fusion (KAT6A, Homo sapiens, UniProt Q92794, residues 1-85)
Setting: 8-mer, flanks averaged, mean of 2 arrays, mostly near background
Target sequence (chain): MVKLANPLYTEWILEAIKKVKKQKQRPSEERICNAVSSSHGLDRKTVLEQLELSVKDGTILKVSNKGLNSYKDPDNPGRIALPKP
CCAAAGTA: -0.179
CTATCCGA: -0.052
GATCGTCA: -0.179
CAAATGGA: -0.142
ATGAGAAA: -0.119
GACCTCAC: -0.0172
AAAAATAT: -0.155
TGTGATAA: -0.166
GGTAGGGA: -0.0719
GCTGGAGA: -0.159
TCAACGGA: 0.0244
AGACAAAT: -0.21
CACGTCAA: -0.121
CAGTGCAC: 0.0138
CCGATATC: 0.0611
GCGCAAGC: 0.391
CCGGCTGA: 0.208
AAAGATCC: -0.102
GTACCTTA: 0.1
CAGTGCGA: 0.00808
GCTGGGCC: 0.0709
CATAGTCC: -0.0262
CTGGATTC: -0.186

Set 5 — method: aptamer microarray, sandwich; molecule type: DNA with 2'F-ANA; matrix: in vitro; tested at: 200 nM; added: Cy3 exosite-II aptamer, 400 nM; reading: higher = stronger binding; measurement: mean fluorescence intensity; sequence: GGTTGGTGTGGTTGG
Target: Prothrombin, mature alpha-thrombin (F2, Homo sapiens, UniProt P00734)
Setting: whole 15-mer aptamer, many near background
2'F-ANA at 1 5 8: 66.3 a.u.
2'F-ANA at 1 3 12 13 15: 499 a.u.
2'F-ANA at 3 5 6 7 8 9 10 12: 74 a.u.
2'F-ANA at 3 6 7 9 10 12 14 15: 402 a.u.
2'F-ANA at 6 9 10 11 12 14: 174 a.u.
2'F-ANA at 2 5 6 8 12 13: 145 a.u.
2'F-ANA at 1 2 3 4 6 7 8 9 11 12 13 14: 63.7 a.u.
2'F-ANA at 2 4 5 6 7 8 12 14 15: 47.7 a.u.
2'F-ANA at 6 7 8 11 12 13 14 15: 215 a.u.
2'F-ANA at 1 2 3 9 10 11 13 15: 84.9 a.u.
2'F-ANA at 6 8 10 12: 250 a.u.
2'F-ANA at 2 4 9 10 11 12 13 15: 89.5 a.u.
2'F-ANA at 1 6 9 10 12 13: 66.2 a.u.
2'F-ANA at 1 3 8 11 13 15: 275 a.u.
2'F-ANA at 1 2 3 4 9 10 15: 73.3 a.u.
2'F-ANA at 1 2 4 6 9 11 13 14: 61.6 a.u.
2'F-ANA at 2 3 4 7 12 15: 922 a.u.
2'F-ANA at 4 10 12: 132 a.u.

Set 6 — target: HLF, bZIP domain (human); method: DHFR protein complementation; matrix: yeast; baseline: wild-type JUN-FOS pair; reading: higher = stronger binding; measurement: binding fitness
Setting: single substitutions, most at no-binding floor
Starting sequence: JUN, bZIP domain (human); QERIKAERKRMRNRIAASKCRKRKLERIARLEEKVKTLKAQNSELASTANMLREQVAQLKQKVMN; partner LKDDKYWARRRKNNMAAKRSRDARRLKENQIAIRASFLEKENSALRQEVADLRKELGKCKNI
L31E: -1.56 natural log
Q55A: -1.43 natural log
N42P: -1.52 natural log
L38A: -1.45 natural log
I28F: -1.3 natural log
E44T: -1.38 natural log
S47D: -1.25 natural log
L45T: -1.56 natural log
T37H: -1.48 natural log
L31G: -1.51 natural log
A29I: -1.44 natural log
L31N: -1.49 natural log
S47T: -1.36 natural log
E54G: -1.39 natural log
Q55L: -1.38 natural log
R53G: -1.48 natural log
S47A: -1.25 natural log
V56W: -1.5 natural log
A46Q: -1.27 natural log
A57K: -1.45 natural log
V35L: -1.39 natural log
S43H: -1.36 natural log
V35Y: -1.17 natural log
V35E: -1.4 natural log
E32R: -1.35 natural log

Excerpt of the above (set 5):
2'F-ANA at 2 4 5 6 7 8 12 14 15: 47.7 a.u.
2'F-ANA at 1 2 3 4 9 10 15: 73.3 a.u.
2'F-ANA at 2 3 4 7 12 15: 922 a.u.
2'F-ANA at 6 9 10 11 12 14: 174 a.u.
2'F-ANA at 6 7 8 11 12 13 14 15: 215 a.u.
2'F-ANA at 4 10 12: 132 a.u.
2'F-ANA at 1 3 12 13 15: 499 a.u.
